Assay results collected from several papers.
Numbered parts are unrelated; each lists some results of a single study.
Sequence of UniProt P41240 (whole entry, looked up): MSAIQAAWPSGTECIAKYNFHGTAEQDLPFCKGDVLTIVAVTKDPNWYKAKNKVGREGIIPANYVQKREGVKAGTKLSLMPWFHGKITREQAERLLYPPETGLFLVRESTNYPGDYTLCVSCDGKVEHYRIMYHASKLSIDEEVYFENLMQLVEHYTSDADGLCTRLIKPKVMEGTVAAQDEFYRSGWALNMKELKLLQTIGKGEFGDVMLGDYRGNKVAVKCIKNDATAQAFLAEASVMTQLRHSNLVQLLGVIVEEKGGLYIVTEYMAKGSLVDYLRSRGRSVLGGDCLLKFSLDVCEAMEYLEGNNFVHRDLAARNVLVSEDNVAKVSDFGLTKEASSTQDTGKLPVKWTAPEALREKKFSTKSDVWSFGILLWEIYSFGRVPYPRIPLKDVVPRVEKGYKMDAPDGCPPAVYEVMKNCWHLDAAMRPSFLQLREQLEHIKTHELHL
Sequence of UniProt P49336 (whole entry, looked up): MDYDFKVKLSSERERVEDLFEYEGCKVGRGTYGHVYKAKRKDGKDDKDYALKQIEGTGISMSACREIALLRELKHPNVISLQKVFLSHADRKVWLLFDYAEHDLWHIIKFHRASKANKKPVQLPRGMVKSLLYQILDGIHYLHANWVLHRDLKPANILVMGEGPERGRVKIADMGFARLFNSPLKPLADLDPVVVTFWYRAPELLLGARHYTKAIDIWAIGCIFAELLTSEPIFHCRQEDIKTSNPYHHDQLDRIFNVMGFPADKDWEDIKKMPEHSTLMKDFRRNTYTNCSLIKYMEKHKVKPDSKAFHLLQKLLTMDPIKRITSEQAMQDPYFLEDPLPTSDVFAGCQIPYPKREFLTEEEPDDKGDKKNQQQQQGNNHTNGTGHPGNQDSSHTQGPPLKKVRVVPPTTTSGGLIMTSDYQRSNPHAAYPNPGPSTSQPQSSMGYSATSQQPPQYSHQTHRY
Sequence of UniProt O00506 (whole entry, looked up): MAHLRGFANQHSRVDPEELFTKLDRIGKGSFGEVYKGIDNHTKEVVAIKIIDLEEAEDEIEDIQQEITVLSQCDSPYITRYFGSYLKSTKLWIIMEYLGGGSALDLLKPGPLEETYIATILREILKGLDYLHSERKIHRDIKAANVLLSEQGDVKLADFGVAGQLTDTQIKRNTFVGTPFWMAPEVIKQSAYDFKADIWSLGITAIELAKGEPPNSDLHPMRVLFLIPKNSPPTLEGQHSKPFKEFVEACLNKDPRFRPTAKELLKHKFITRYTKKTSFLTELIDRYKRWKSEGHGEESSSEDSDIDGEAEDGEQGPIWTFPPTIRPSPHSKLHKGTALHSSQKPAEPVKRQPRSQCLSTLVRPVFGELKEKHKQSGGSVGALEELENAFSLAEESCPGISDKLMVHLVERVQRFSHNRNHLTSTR
Sequence of UniProt Q15139 (whole entry, looked up): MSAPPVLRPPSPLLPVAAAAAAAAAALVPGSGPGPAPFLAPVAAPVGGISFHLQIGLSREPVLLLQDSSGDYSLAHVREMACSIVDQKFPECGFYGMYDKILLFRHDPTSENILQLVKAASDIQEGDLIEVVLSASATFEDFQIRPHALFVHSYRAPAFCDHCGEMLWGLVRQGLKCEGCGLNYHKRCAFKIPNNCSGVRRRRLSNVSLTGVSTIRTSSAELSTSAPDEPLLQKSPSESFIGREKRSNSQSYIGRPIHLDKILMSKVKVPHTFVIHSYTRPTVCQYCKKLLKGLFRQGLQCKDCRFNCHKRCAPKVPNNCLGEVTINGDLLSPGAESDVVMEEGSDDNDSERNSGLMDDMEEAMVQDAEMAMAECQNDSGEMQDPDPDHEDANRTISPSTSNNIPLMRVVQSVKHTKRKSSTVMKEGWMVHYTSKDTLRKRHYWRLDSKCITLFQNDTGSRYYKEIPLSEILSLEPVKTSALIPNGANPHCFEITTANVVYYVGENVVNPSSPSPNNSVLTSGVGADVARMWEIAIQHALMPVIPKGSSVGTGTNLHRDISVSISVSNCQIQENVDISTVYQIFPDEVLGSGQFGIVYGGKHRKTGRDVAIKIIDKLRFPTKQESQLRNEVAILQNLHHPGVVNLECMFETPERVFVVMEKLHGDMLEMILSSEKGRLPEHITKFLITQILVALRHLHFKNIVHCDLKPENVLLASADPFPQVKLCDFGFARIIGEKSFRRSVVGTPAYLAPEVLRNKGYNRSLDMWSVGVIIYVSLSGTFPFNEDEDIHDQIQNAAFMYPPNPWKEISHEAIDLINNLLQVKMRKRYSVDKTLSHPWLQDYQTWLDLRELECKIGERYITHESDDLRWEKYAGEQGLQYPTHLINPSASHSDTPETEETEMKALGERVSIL

Series 1
SMILES: COc1cccc(CNC(=O)c2nc3scc(COCc4ccc(C(=O)O)cc4)c3c(=O)[nH]2)c1
Effect on: cell-free assay
Method: competition with immobilised ligand
Concentration: 1 µM
It gave 100% for remaining binding (Tyrosine-protein kinase CSK (CSK, Homo sapiens, UniProt P41240)).
It gave 73.4% for remaining binding (Cyclin-dependent kinase 8 (CDK8, Homo sapiens, UniProt P49336)).
It gave 100% for remaining binding (Serine/threonine-protein kinase 25 (STK25, Homo sapiens, UniProt O00506)).
It gave 100% for remaining binding (Serine/threonine-protein kinase D1 (PRKD1, Homo sapiens, UniProt Q15139)).

Series 2
Host: human
Sample: microsomes or S9
Concentration: 2 µM
Time: 0.5 h
`COC(=O)c1c(NC(=O)c2ccco2)sc2c1CCC2` gave a remaining compound of 1.29%.
With `Nc1cccc(Nc2nc(Cl)nc3[nH]ccc23)c1` the remaining compound was 59.7%.
For `CCNc1nc(NNC(=O)CNc2ccccc2)nc(NC(C)C)n1`, the remaining compound was 76.3%.

Series 3
Target: Tyrosine-protein kinase CSK (CSK, Homo sapiens, UniProt P41240)
Effect on: enzyme activity
Mode: inhibitor
Concentration: 0.5 µM
Baseline: control
`Nc1ncnc2n[nH]c(Nc3ccc(F)cc3)c12` has a remaining activity of 80.2%.
`COc1cc2nccc(Oc3ccc(NC(=S)NC(=O)c4ccccc4C)cc3)c2cc1OC` has a remaining activity of 75.3%.
`COc1ccc(CNC(=O)Nc2ncc([N+](=O)[O-])s2)cc1` gave a remaining activity of 102%.
With `Cn1sc(=O)n(Cc2ccccc2)c1=O` the remaining activity was 101%.
`OCC(O)CCON=C1C(c2c(O)[nH]c3ccccc23)=Nc2ccccc21` (centres unmarked) has a remaining activity of 86.3%.
`O=c1c2ccccc2[nH]c(=S)n1CCN1CCC(=C(c2ccc(F)cc2)c2ccc(F)cc2)CC1` has a remaining activity of 119%.
For `O=C(CCCc1ccc(-c2ccccc2F)cc1)Nc1ccc(O)cc1`, the remaining activity was 88%.
For `O=C1NC(=O)C(c2cn(CCCO)c3ncccc23)=C1c1cnccn1`, the remaining activity was 86.9%.
The remaining activity of `CC(C)[C@H](CO)Nc1nc(Nc2cc(N)cc(Cl)c2)c2ncn(C(C)C)c2n1` is reported as 79.3%.
`CCOC(=O)c1c(C)[nH]c(/C=C2\C(=O)Nc3ccccc32)c1C` gave a remaining activity of 104%.
`COc1cc2ncnc(Nc3ccc(F)c(Cl)c3)c2cc1OCCCN1CCOCC1` has a remaining activity of 95.4%.
The remaining activity of `Cc1ccc(Nc2nccc(N(C)c3ccc4c(C)n(C)nc4c3)n2)cc1S(N)(=O)=O` is reported as 93%.
`Nc1ccc2ncnc(NCCc3ccc(Oc4ccccc4)cc3)c2c1` gave a remaining activity of 96.7%.
With `N#CC(C#N)=C(N)/C(C#N)=C/c1ccc(O)cc1` the remaining activity was 97.6%.

Series 4
Organism: Sarcocystis neurona
Effect on: parasite growth
Concentration: 10 µM
Time: 96 h
Notes: second screen
Baseline: untreated
`C=CC[C@@H]1/C=C(\C)C[C@H](C)C[C@H](OC)[C@H]2O[C@@](O)(C(=O)C(=O)N3CCCC[C@H]3C(=O)O[C@H](/C(C)=C/[C@@H]3CC[C@@H](O)[C@H](OC)C3)[C@H](C)[C@@H](O)CC1=O)[C@H](C)C[C@@H]2OC` — result for “log2 fold change”: -0.16.
`CC(C)(C)C(O)/C=C/c1ccc2c(c1)OCO2` (centres unmarked) — result for “log2 fold change”: 0.5.
For `c1ccc(CC2=NCCN2)cc1`, “log2 fold change” read 0.34.
`COC(=O)Nc1nc2ccc(C(=O)c3ccccc3)cc2[nH]1`: “log2 fold change” 1.25.

Series 5
Cell line: A-375
Concentration: 100 µM
Time: 18 h
`CC(C)NCC(O)COc1cccc2[nH]c3ccccc3c12` (centres unmarked) gave a viability of 43.8%.
`O=C(O)c1cc(=O)[nH]c(=O)[nH]1` gave a viability of 91.6%.
`C[C@H](O)C(=O)Nc1c(I)c(C(=O)NC(CO)CO)c(I)c(C(=O)NC(CO)CO)c1I` has a viability of 89.5%.
`CC[C@@]1(O)C(=O)OCc2c1cc1n(c2=O)Cc2cc3c(CN(C)C)c(O)ccc3nc2-1` has a viability of 61.4%.

Some of these lines once more (series 2):
With `Nc1cccc(Nc2nc(Cl)nc3[nH]ccc23)c1` the remaining compound was 59.7%.
`COC(=O)c1c(NC(=O)c2ccco2)sc2c1CCC2` gave a remaining compound of 1.29%.
For `CCNc1nc(NNC(=O)CNc2ccccc2)nc(NC(C)C)n1`, the remaining compound was 76.3%.
